Assay results of several laboratories.
Every numbered part comes from another study and shows a few of its results, in no order. Values joined by “and” are separate records of one study, mostly repeats; a detail may differ.
UniProt Q99640, sequence (whole entry, looked up): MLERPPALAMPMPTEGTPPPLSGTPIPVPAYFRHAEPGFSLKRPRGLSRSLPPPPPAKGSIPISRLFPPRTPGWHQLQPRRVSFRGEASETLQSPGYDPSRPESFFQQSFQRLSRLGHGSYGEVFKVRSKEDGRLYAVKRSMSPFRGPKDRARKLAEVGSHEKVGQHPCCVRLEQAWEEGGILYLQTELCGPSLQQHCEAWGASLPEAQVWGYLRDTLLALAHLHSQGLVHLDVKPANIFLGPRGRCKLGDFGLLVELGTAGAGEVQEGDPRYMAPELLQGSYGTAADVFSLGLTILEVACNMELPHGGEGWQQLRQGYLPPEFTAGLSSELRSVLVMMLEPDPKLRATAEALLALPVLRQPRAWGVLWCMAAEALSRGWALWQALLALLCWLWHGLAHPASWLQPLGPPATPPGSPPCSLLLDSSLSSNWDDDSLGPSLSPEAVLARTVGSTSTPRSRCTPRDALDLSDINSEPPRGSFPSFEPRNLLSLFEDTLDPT

Block 1
Target: Cyclin-dependent kinase 12, with cyclin K (CDK12, Homo sapiens, UniProt Q9NYV4)
UniProt Q9NYV4, sequence (whole entry, looked up): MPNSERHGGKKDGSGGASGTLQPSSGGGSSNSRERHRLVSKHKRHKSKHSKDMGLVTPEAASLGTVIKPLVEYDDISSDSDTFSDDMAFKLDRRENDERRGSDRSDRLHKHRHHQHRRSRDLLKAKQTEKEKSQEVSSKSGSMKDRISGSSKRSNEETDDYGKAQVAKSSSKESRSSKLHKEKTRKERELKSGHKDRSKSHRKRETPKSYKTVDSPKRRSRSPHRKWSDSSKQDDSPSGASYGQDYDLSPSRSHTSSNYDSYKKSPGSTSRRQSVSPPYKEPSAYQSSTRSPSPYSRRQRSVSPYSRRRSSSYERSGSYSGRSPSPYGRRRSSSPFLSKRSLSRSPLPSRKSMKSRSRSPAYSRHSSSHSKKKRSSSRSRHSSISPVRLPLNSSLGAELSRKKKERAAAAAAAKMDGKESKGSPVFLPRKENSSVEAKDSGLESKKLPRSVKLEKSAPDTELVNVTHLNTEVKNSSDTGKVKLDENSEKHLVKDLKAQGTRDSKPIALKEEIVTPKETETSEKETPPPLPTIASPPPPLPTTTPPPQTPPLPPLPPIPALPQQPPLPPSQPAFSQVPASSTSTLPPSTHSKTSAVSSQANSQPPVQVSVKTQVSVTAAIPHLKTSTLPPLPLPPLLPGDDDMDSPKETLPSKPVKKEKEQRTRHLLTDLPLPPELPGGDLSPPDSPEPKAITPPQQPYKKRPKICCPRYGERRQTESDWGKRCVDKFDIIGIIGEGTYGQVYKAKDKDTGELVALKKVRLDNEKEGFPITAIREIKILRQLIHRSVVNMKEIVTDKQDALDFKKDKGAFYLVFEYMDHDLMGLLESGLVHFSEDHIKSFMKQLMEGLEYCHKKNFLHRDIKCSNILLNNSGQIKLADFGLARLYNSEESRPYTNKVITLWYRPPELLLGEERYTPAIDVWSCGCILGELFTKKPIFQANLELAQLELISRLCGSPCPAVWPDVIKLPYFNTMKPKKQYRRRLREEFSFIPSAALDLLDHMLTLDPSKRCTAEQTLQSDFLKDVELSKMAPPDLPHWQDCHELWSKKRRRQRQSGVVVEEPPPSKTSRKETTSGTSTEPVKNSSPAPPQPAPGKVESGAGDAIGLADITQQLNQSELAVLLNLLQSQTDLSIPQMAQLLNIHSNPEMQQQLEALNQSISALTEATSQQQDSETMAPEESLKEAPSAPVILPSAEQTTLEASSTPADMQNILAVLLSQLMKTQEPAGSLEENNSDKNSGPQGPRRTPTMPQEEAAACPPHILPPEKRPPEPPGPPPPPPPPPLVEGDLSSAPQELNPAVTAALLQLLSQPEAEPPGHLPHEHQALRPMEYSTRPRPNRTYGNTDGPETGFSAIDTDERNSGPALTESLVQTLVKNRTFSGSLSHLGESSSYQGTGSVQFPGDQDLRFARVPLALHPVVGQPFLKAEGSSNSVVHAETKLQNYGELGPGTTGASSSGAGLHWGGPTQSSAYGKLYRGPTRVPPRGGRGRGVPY
Effect on: kinase activity
Action: inhibitor
Method: ADP-Glo
Tested at: 0.2222 µM
CCn1cnc2c(NCc3nc4cc(Cl)c(Cl)cc4[nH]3)nc(N3CCn4ncnc4C3)nc21 gave an inhibition of 79.4%.
For CCn1cnc2c(NCc3nc4cc(Cl)c(Cl)cc4[nH]3)nc(N3CCN(C(=O)[C@H](C)NC(C)=O)CC3)nc21, the inhibition was 40.9%.
For CC(=O)N1CCN(c2nc(NCc3nc4cc(Cl)c(Cl)cc4[nH]3)c3ncn(-c4cnn(C)c4)c3n2)CC1, the inhibition was 58%.
CCn1cnc2c(NCc3nc4cc(Cl)c(Cl)cc4[nH]3)nc(N3CCN(C(C)=O)CC3)nc21 gave an inhibition of 63.7%.
For CCCCOc1nc(NCc2nc3cc(Cl)c(Cl)cc3[nH]2)c2ncn(CC)c2n1, the inhibition was 42.1%.
The inhibition of CCn1cnc2c(NCc3nc4cc(Cl)c(Cl)cc4[nH]3)nc(N3CCN(Cc4ccncc4)CC3)nc21 is reported as 25.9%.
For CCn1cnc2c(NCc3nc4ccc(F)c(F)c4[nH]3)nc(N3CCn4ncnc4C3)nc21, the inhibition was 56%.
With CCn1cnc2c(NCc3nc4cc(F)c(F)cc4[nH]3)nc(N3CCn4ncnc4C3)nc21 the inhibition was 48.8%.
For CCn1cnc2c(NCc3nc4cc(Cl)c(Cl)cc4[nH]3)nc(N3CCN(c4ccccn4)CC3)nc21, the inhibition was 51.8%.

Block 2
Organism: Arabidopsis thaliana
Strain: Col-0
Tested at: 12.5 µg/mL
Setting: seed germination, single repetition
CCN1C(=O)C(O)(C(=O)O)Oc2cc(F)ccc21 (stereo not shown) gave a hypocotyl length of 1.9 cm and 1.87 cm and 1.94 cm and 1.8 cm and 1.91 cm.
The hypocotyl length of O=C(O)C1(O)Oc2cc(Br)ccc2N(Cc2ccccc2)C1=O (stereo not shown) is reported as 1.91 cm and 1.92 cm and 1.95 cm and 1.94 cm.
The hypocotyl length of CCCN1C(=O)C(O)(C(=O)O)Oc2cc(F)ccc21 (stereo not shown) is reported as 1.93 cm and 1.87 cm and 1.89 cm and 1.88 cm and 1.9 cm.
CN1C(=O)C(O)(C(=O)O)Oc2cc(F)ccc21 (stereo not shown) has a hypocotyl length of 2.05 cm and 2.11 cm and 1.93 cm and 1.95 cm and 1.9 cm.

Block 3
Compound: C[C@@H]1CN(c2ccc(-c3cc(C(=O)NCCOCCOCCOCCOCCNC(=O)/C=C/c4[nH]cc(C(=O)N[C@@H](CC(N)=O)c5ccc(F)c(Cl)c5)c4-c4ccc(Cl)cc4F)ccc3F)cc2NC(=O)c2c[nH]c(=O)cc2C(F)(F)F)C[C@H](C)N1C
Effect on: thermal unfolding
Method: differential scanning fluorimetry
Tested at: 5.5 µM
Reading: higher = more unfolded
WDR5: WD repeat-containing protein 5 (WDR5, Homo sapiens, UniProt P61964)
DCAF1: DDB1- and CUL4-associated factor 1 (DCAF1, Homo sapiens, UniProt Q9Y4B6)
UniProt Q9Y4B6, sequence (whole entry, looked up): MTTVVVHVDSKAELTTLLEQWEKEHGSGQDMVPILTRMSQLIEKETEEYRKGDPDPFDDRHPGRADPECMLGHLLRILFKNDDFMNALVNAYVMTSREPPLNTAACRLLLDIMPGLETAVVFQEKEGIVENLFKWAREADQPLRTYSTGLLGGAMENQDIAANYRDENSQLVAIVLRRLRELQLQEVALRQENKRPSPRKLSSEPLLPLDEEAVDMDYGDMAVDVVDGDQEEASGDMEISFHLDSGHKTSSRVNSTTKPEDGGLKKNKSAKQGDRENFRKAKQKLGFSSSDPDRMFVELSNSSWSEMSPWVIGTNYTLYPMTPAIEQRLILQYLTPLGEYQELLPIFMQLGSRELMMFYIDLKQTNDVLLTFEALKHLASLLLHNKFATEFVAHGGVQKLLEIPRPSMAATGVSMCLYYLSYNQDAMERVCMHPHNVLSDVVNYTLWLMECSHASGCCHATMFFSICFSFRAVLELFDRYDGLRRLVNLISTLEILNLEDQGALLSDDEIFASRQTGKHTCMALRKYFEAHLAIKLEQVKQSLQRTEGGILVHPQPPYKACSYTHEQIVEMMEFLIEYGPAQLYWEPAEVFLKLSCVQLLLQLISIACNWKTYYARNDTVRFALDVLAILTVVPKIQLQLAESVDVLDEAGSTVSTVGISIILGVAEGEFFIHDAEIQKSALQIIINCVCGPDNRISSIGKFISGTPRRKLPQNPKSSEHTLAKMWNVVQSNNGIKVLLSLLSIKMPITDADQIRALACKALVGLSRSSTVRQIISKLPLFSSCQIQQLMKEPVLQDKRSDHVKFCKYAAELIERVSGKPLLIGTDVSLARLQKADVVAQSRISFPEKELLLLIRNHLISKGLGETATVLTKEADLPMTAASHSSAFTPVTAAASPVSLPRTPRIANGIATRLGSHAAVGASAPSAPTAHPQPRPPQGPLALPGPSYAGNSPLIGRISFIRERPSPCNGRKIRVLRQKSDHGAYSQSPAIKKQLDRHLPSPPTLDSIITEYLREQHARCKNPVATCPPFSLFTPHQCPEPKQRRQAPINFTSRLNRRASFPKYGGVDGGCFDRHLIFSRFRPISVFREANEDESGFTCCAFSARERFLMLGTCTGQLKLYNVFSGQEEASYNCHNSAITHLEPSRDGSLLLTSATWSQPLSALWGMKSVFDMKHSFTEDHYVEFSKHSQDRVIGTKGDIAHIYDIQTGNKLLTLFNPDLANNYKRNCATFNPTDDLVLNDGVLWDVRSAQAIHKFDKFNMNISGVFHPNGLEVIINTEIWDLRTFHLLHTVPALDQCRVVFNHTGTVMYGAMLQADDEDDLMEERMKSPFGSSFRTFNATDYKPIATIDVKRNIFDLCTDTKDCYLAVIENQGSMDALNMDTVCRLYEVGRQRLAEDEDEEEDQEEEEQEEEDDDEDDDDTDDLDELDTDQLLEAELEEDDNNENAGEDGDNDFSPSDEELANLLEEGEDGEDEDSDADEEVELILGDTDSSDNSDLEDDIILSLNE
For WDR5; 59.61 °C: “SYPRO Orange fluorescence” read 15700 a.u.
WDR5; 76.21 °C — “SYPRO Orange fluorescence”: 28800 a.u.
For WDR5; 60.21 °C: “SYPRO Orange fluorescence” read 15600 a.u.
WDR5; 56.41 °C — “SYPRO Orange fluorescence”: 16700 a.u.
It gave 46100 a.u. for “SYPRO Orange fluorescence” (DCAF1; 79.21 °C).
DCAF1; 56.61 °C — “SYPRO Orange fluorescence”: 25800 a.u.
It gave 15800 a.u. for “SYPRO Orange fluorescence” (DCAF1; 50.8 °C).
For WDR5; 28.4 °C: “SYPRO Orange fluorescence” read 12900 a.u.
It gave 20500 a.u. for “SYPRO Orange fluorescence” (WDR5; 72.61 °C).
The “SYPRO Orange fluorescence” was 13100 a.u. (DCAF1; 45.2 °C).
The “SYPRO Orange fluorescence” was 12600 a.u. (DCAF1; 44 °C).

Other studies, line by line
Cc1ncc(-c2cc3c(C(F)(F)F)c(-c4c(C)ccc(O)c4C)cnc3[nH]2)cn1 — result for “pCDK1 (Thr14) level”: 4.9 RLU and 8.48 RLU (HCC1569; in-cell western, measured: CDK1 phospho-Thr14; 4.57 nM).
With Cc1ccc(O)c(C)c1-c1cnc2[nH]c(-c3cnc(N4CCC5(CC4)CC(N4CCN(c6ccc7c(c6)C(=O)N(C6CCC(=O)NC6=O)C7=O)CC4)CO5)nc3)cc2c1C#N (mixture of isomers) the inhibition was 4.48% and 5.85% (PKMYT1 (Homo sapiens, UniProt Q99640); binding, HTRF; 0.46 nM).
Cc1ccc(O)c(C)c1-c1cnc2[nH]c(-c3cnc(N4CCC5(CC4)CC(N4CCN(c6ccc(N[C@H]7CCC(=O)NC7=O)cc6F)CC4)CO5)nc3)cc2c1C#N (single isomer, unassigned): “number of kinases bound” 1 (KINOMEscan; 403 non-mutant kinase panel; 1000 nM, percent of control below 10).
For Cc1ncc(-c2cc3c(Cl)c(-c4c(C)ccc(O)c4C)cnc3[nH]2)cn1, “pCDK1 (Thr14) level” read 80.7 RLU and 81.5 RLU (HCC1569; in-cell western, measured: CDK1 phospho-Thr14; 10000 nM).

Repeated from above (other studies, line by line):
Cc1ncc(-c2cc3c(C(F)(F)F)c(-c4c(C)ccc(O)c4C)cnc3[nH]2)cn1 — result for “pCDK1 (Thr14) level”: 4.9 RLU and 8.48 RLU (HCC1569; in-cell western, measured: CDK1 phospho-Thr14; 4.57 nM).
